# Published values from different studies.
# Each numbered part is a random draw from the data of one study; scales do not carry over between parts.
# Sequence of UniProt P07270 (whole entry, looked up): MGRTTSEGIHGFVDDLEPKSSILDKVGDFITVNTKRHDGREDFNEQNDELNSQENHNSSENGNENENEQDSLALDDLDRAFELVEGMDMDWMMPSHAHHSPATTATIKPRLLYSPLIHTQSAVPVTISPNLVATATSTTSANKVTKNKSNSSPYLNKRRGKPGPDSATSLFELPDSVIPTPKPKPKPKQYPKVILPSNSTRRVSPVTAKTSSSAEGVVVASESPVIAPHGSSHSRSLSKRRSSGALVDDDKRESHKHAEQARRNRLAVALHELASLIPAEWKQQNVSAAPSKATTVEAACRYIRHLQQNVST

# Block 1
# Target: Histone acetyltransferase KAT6A, winged helix 2, GST fusion (KAT6A, Homo sapiens, UniProt Q92794, residues 85-181)
# Method: protein binding microarray
# Form: double-stranded DNA, one strand shown
# Matrix: in vitro
# Concentration: not given
# Notes: 8-mer, flanks averaged, mean of 2 arrays, mostly near background
# Relative to: not given
# Reading: higher = stronger binding
# Residues (chain): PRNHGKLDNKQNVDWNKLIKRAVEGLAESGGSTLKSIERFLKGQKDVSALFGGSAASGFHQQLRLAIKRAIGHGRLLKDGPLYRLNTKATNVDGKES
Strand,E-score
GCTATTCA,-0.0761
GCAAACCA,0.226
ATTGATAC,0.0952
ATAATGTC,-0.117
GCCAATGA,-0.181

# Other studies, line by line
# SALL4 full length isoform A: Sal-like protein 4, full length isoform A (SALL4, Homo sapiens, UniProt Q9UJQ4, residues 1-1053)
# Sequence of UniProt Q9UJQ4 (whole entry, looked up): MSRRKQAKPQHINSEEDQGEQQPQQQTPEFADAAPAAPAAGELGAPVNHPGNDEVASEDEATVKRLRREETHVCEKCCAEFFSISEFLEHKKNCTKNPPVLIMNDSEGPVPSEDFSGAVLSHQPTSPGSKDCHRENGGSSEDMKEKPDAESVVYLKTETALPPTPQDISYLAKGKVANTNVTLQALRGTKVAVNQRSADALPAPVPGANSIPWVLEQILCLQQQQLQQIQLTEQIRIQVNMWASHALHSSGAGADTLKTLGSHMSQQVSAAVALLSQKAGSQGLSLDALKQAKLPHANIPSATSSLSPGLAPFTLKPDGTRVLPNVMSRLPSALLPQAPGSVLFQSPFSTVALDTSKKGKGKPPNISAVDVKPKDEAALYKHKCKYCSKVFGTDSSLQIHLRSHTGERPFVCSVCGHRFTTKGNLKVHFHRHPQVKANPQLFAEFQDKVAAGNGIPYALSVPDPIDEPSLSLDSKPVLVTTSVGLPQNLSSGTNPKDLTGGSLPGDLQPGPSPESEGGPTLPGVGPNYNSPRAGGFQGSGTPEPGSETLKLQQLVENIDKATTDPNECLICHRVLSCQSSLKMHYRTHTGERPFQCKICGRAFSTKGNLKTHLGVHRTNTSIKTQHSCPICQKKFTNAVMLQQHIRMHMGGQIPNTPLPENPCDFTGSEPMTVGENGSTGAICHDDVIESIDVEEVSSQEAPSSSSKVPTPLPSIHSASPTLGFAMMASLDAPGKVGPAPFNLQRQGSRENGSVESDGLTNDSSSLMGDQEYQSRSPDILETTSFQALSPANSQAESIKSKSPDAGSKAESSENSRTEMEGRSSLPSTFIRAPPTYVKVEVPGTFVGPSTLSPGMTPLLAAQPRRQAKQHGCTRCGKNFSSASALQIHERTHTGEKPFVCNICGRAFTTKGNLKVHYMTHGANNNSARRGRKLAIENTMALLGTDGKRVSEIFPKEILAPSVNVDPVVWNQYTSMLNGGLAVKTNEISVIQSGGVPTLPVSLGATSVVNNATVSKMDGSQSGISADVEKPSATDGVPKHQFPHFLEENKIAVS
# FKH1 DNA-binding domain: Fork head protein homolog 1, DNA-binding domain (FKH1, Saccharomyces cerevisiae, UniProt P40466, residues 243-484)
# Sequence of UniProt P40466 (243-484, looked up): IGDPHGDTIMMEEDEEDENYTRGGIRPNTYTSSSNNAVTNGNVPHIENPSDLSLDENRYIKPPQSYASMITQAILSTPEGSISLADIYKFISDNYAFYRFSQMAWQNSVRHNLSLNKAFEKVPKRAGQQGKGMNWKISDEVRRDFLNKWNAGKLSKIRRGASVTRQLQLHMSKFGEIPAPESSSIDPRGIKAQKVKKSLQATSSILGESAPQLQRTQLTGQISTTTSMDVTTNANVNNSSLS
Molecule,target,assay,test system,setting,how to read,measurement,value
CAACAACTGCTGATTCTCGTGATGGGAGAAATTAGCGTCTTGATTCGCTTGACGCTGCTG,"Phosphate system positive regulatory protein PHO4, full length, GST-tagged (PHO4, Saccharomyces cerevisiae, UniProt P07270, residues 1-312)",competition protein-binding microarray,"double-stranded DNA, one strand shown, in vitro","2 µM, whole 60-bp probe, lowest competitor level, added: Cbf1 competitor, 0.05 µM",higher = stronger binding,fluorescence intensity,6160 a.u.
AGTGCGGG,SALL4 full length isoform A,universal PBM,"double-stranded DNA, one strand shown, in vitro","600 nM, 8-mer, flanks averaged, mean of replicates",higher = stronger binding,E-score,-0.206
GCAAACA,FKH1 DNA-binding domain,SELEX-seq,"double-stranded DNA, one strand shown, in vitro","not given, 7-bp core, flanks averaged","relative to: best-binding core, lower = stronger binding",relative binding free energy,2.04 ddG/RT
"PhoQ, residues 284 288 289 292 302 303 ASVMEA","PhoP, residues 12 14 15 18 19 LHTVM (Escherichia coli, UniProt P23836)","Sort-seq, measured: YFP reporter",E. coli,"PhoQ-PhoP variant library, added: 10 µM Mg2+","relative to: high Mg2+ state, higher = stronger signaling",fold induction,10.8
ACCAACA,FKH1 DNA-binding domain,SELEX-seq,"double-stranded DNA, one strand shown, in vitro","not given, 7-bp core, flanks averaged","relative to: best-binding core, lower = stronger binding",relative binding free energy,2.49 ddG/RT
CAGATCTG,SALL4 full length isoform A,universal PBM,"double-stranded DNA, one strand shown, in vitro","600 nM, 8-mer, flanks averaged, mean of replicates",higher = stronger binding,E-score,-0.246

# For quick reference, copied from above (block 1):
Strand,E-score
ATTGATAC,0.0952
ATAATGTC,-0.117
